Results of several laboratories.
Lines come from different studies, so protocols differ. Several values in a cell are separate wells, animals, samples, runs or records. Numbers after ± are the reported error.
UCHL1: Ubiquitin carboxyl-terminal hydrolase isozyme L1 (UCHL1, Homo sapiens, UniProt P09936)
TOP2B: DNA topoisomerase 2-beta (TOP2B, Homo sapiens, UniProt Q02880)
Voltage-dependent P/Q-type calcium channel subunit alpha-1A: Voltage-dependent P/Q-type calcium channel subunit alpha-1A (Homo sapiens, UniProt O00555)
BEST1: BEST1 (Homo sapiens, UniProt O76090)
T1: G-quadruplex DNA (Homo sapiens); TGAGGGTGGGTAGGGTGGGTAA

Structure (SMILES)	target or system	test	test system	conditions	scale	quantity	value
Cn1cc(-c2ccc(-c3cncc(Cl)c3N3CCC4(CCNC4=O)CC3)cc2)cn1	COLO 205	gene expression, microarray, item: TNFSF10 mRNA	–	concentration not given, 6 h	reference: untreated cells	log2 fold change	2.19
CCOC(=O)c1[nH]c2cc(Cl)ccc2c1C(C(=O)NC(C)(C)C)N(C=O)Cc1ccc(Oc2ccccc2)cc1 (centres unmarked)	MDM2 (Homo sapiens, UniProt Q00987)	fluorescence polarization	–	–	–	Ki	1.8 µM
COc1ccc(C)cc1CN1CCC(c2cc3ncccc3cn2)CC1	Catenin beta-1, residues 141-305 (CTNNB1, Homo sapiens, UniProt P35222)	ITC	–	25 °C	–	ΔH	-1.5 kcal/mol
O=C(O)CC(O)(CC(=O)O)C(=O)O	uncharacterized protein (Pelagibacter ubique, UniProt Q4FLC8)	binding, competition isothermal titration calorimetry	Candidatus Pelagibacter ubique	together with: cis-aconitate 1 mM competitor, MgSO4 53 mM	–	Ka	1.44e+09 M⁻¹ and 1.43e+09 M⁻¹
Nc1ncnc2c1ncn2[C@@H]1O[C@H](COP(=O)(O)CP(=O)(O)OP(=O)(O)O)[C@@H](O)[C@H]1O	P2X purinoceptor 1 (P2RX1, Homo sapiens, UniProt P51575, R139P)	calcium influx	–	3.16 µM	reference: ionomycin response	calcium influx	94.7% and 98.7% and 95.9%
c1coc(-c2n[nH]cc2-c2ccnc3ccccc23)c1	Histidine protein kinase NIK1 (NIK1, Candida albicans, UniProt Q5A599)	kinase binding, MIB/MS competition	Candida albicans lysate	10 µM	reference: DMSO, negative = stronger binding	log2 fold change	-0.12
CCN1CCC[C@H]1CNC(=O)c1c(O)c(Cl)cc(Cl)c1OC	Probable G-protein coupled receptor 160 (GPR160, Homo sapiens, UniProt Q9UJ42)	β-arrestin recruitment, TANGO luminescence, item: GPR160	–	concentration not given	reference: basal luminescence	log2 fold change	0.251
Cc1cc(-c2ccnc3[nH]cc(F)c23)cc(F)c1[C@@]1(O)[C@H](C)CN(C2CCS(=O)(=O)CC2)C[C@@H]1C	LATS1 (Homo sapiens, UniProt O95835)	ATP/ADP probe binding, KiNativ	HEK293T lysate	1 µM, Lys1 peptide ALYATKTLR	–	probe labelling inhibition	58.9%
CCCCC(=O)NN(CC)c1cc(C)c(C#N)c(Cl)n1	UCHL1	covalent, intact protein LC-MS	–	12.5 µM	–	labelling	5.73%
O=C(NCCNC(=O)c1n[nH]c(=O)c2ccccc12)c1cccc(CN2C(=O)CNC2=O)c1	TNKS (Homo sapiens, UniProt O95271)	enzyme activity, inhibitor	–	–	–	ligand efficiency	0.42
O=c1ccc2c(OCCCCOc3ccccc3)c3ccoc3cc2o1	Kcna3 (Mus musculus, UniProt P16390)	potassium current, blocker	L929	–	–	Hill coefficient	1.8
CCC(=O)N1CCc2cc(C(=O)CCl)ccc21	UCHL1	covalent, intact protein LC-MS	–	12.5 µM	–	labelling	12.6%
CC[C@@H]1[C@H](F)C(=O)N[C@@H]1COc1nccc2cc(C(N)=O)c(OC)cc12	STK38L (Homo sapiens, UniProt Q9Y2H1)	ATP-site probe binding, ActivX profiling	THP-1 cell lysate	0.04 mM, Lys1 site	–	inhibition	-2%
O=c1nc(SCc2cc(F)cc(C(F)(F)F)c2)nc(SCc2ccc3nc(Cl)ccc3c2)[nH]1	TOP2B	decatenation	–	7.8 µM, replicate 2	–	decatenated DNA	100%
CNCC[C@@H](Oc1ccccc1C)c1ccccc1	Voltage-dependent P/Q-type calcium channel subunit alpha-1A	ion current, antagonist, automated patch clamp	–	–	–	IC30	3.94 µM
CC(C)=CCC/C(C)=C/C=C/C(C)=C/C=C/C(C)=C/C=C/C=C(C)/C=C/C=C(C)/C=C/C=C(\C)CCC=C(C)C	Beta-lactoglobulin (LGB, Bos taurus, UniProt P02754)	isothermal titration calorimetry	–	concentration not given	–	binding stoichiometry	1
N[C@@H](CCC(=O)O)C(=O)O	glc-2 (Caenorhabditis elegans, UniProt Q17328, R351A/R352A/R353A/T283S)	two-electrode voltage clamp	Xenopus laevis oocytes	–	–	mean current	1.4 µA
CCS(=O)(=O)N1CC(CC#N)(n2cc(-c3ncnc4[nH]ccc34)cn2)C1	ORM1 (Homo sapiens, UniProt P02763)	–	–	together with: Zn^2+	–	change in binding constant	3.1%
Cc1nc(CSc2nc(SCc3ccc(C(C)C)cc3)nc(=O)[nH]2)cs1	TOP2B	decatenation	–	125 µM, replicate 1	–	decatenated DNA	0.25%
O=C(COP(=O)(O)O)[C@@H](O)[C@H](O)[C@H](O)COP(=O)(O)O	Phosphoglycerate mutase 1 (Homo sapiens, UniProt P18669)	activator	–	0.03906 mM, wild-type enzyme, unit not given	relative to no compound	enzyme activity	1.18 and 1.33 and 1.15
N#CC(=Cc1cccc(O)c1)C(=O)Nc1ccc(N2CCOCC2)cc1	UCHL1	covalent, intact protein LC-MS	–	12.5 µM	–	labelling	22.3%
O=C1CCCN1Cc1ccc(NS(=O)(=O)c2cccc(Cl)c2O)cc1	malate dehydrogenase	enzyme activity, inhibitor	–	200 µM, pH 7.0, 1% DMSO, aggregation counter-screen	–	remaining activity	92%
CCNCc1nc2c(N)nc3ccccc3c2n1CC(C)(C)O	Toxoplasma gondii	parasite growth, luciferase reporter	HFF, tachyzoite	72 h	–	EC90	22.8 µM
COc1ccc(Br)c(CCNS(=O)(=O)c2ccsc2C(=O)O)c1	malate dehydrogenase	enzyme activity, inhibitor	–	200 µM, pH 7.0, 1% DMSO, aggregation counter-screen	–	remaining activity	78%

Structure (SMILES)	target or system	test	test system	conditions	scale	quantity	value
CN(C)C(=O)C(CCN1CCC(O)(c2ccc(Cl)cc2)CC1)(c1ccccc1)c1ccccc1	Calcium-activated potassium channel subunit alpha-1, with LRRC26 γ1 subunit (KCNMA1, Homo sapiens, UniProt Q12791)	BK channel conductance, inside-out patch clamp	–	BKα/γ1, Vm 80 mV, nominally Ca2+-free	–	Hill coefficient	0.675 ± 0.064
O=C(c1cc(=O)[nH]c2ccc([N+](=O)[O-])cc12)N1CCSSCC1	UCHL1	covalent, intact protein LC-MS	–	12.5 µM	–	labelling	9.36%
O=C(O)c1ccc([N+](=O)[O-])cc1	BEST1	whole-cell patch clamp	HEK293 transiently expressing channel	concentration not given, membrane potential 20 mV	–	current density	9.38 pA/pF and 27.4 pA/pF and 21.8 pA/pF and 18.1 pA/pF and 19 pA/pF and 9.18 pA/pF and 16.9 pA/pF
CN(C)CCCNc1nc(-c2cccc(-c3nc(NCCCN(C)C)c4ccccc4n3)n2)nc2ccccc12	T1, G-quadruplex DNA (Homo sapiens)	thiazole orange displacement, competitor, FID	–	0.25 µM DNA, pH 7.4, 25 °C, KCl 100 mM, together with: thiazole orange 0.50 µM	–	IC50	0.154 µM
C=CC(=O)N1CCC(COCC(=O)N2CCN(c3nc(-c4cnc(N)nc4C(F)F)nc(N4CCOC[C@@H]4C)n3)CC2)CC1	EPHA7 (Homo sapiens, UniProt Q15375)	KINOMEscan	–	1 µM	–	remaining binding	85%
Cc1ccc2ncccc2c1NS(=O)(=O)c1cccc(Cl)c1O	malate dehydrogenase	enzyme activity, inhibitor	–	200 µM, pH 7.0, 1% DMSO, aggregation counter-screen	–	remaining activity	100%
CC1CC(C)CN(CCOCCSc2ccccc2)C1 (centres unmarked)	Trypanosoma cruzi	reporter translation, Renilla luciferase mRNA translation	cell-free extract	40 µM	reference: DMSO	inhibition	-9.1%
O=c1nc(SCc2cc(F)cc(C(F)(F)F)c2)nc(SCc2ccc3sccc3c2)[nH]1	TOP2B	decatenation	–	31.25 µM, replicate 2	–	decatenated DNA	0%
Cc1cc(Oc2ncccc2CN2CCN(C(c3ccccc3)c3ccccc3)CC2)ccc1-c1c(C)c(=O)[nH]c(=O)n1C	ADRA2C (Homo sapiens, UniProt P18825)	binding, radioligand binding	–	together with: [3H]rauwolscine	reference: Ki alpha2B over Ki alpha2C	selectivity ratio	1
CCNC(=O)/C=C/c1cccc(Br)c1	SLC6A19 (Homo sapiens, UniProt Q695T7)	inhibitor, FLIPR membrane potential	CHO-BC cells	0.03 µM, unit not given	reference: no inhibitor	remaining transport activity	0.972
CC(=O)c1cc(NS(=O)(=O)c2cc(Cl)cc(Cl)c2O)ccc1F	malate dehydrogenase	enzyme activity, inhibitor	–	200 µM, pH 7.0, 1% DMSO, aggregation counter-screen	–	remaining activity	94%
N#CC(=Cc1ccccc1)C(=O)Nc1nncs1	UCHL1	covalent, intact protein LC-MS	–	12.5 µM	–	labelling	11.9%
O=C1NCCN1CCN1CCC(c2cn(-c3ccc(F)cc3)c3ccc(Cl)cc23)CC1	Voltage-dependent P/Q-type calcium channel subunit alpha-1A	ion current, antagonist	HEK293	3 µM	–	inhibition	42%
Cc1cn(C2CCN(Cc3cncc(Oc4cc(Cl)cc(Cl)c4)c3)CC2)c(=O)[nH]c1=O	Thymidylate kinase (DTYMK, Homo sapiens, UniProt P23919)	enzyme activity, inhibitor	–	no inhibition observed	–	highest concentration tested	> 31 µM
O=C(O)c1ccc(O)cc1	BEST1	whole-cell patch clamp	HEK293 transiently expressing channel	concentration not given, membrane potential 80 mV	–	current density	36.1 pA/pF and 29.9 pA/pF and 31.2 pA/pF and 52.2 pA/pF and 81.5 pA/pF and 30 pA/pF and 44.2 pA/pF
CC(NS(=O)(=O)c1ccc(CCC(=O)N2CCN(C)CC2)cc1)c1ccccc1 (centres unmarked)	Trypanosoma cruzi	reporter translation, Renilla luciferase mRNA translation	cell-free extract	40 µM	reference: DMSO	inhibition	-15.6%
Cc1ccc(S(=O)(=O)n2nc(SCc3ccc(Cl)cc3)nc2N)cc1	Lysophospholipase-like protein 1 (Mus musculus, UniProt Q3UFF7)	enzyme activity, activator, gel-based ABPP	purified protein	concentration not given, together with: FP-rhodamine	reference: DMSO	probe labeling increase	2.2 fold
CCCCCCCCCCCCNC(=S)NCCCC[C@H](NS(C)(=O)=O)C(=O)N[C@@H](C)C(=O)N[C@@H](CCCNC(=N)N)C(N)=O	SIRT2 (Homo sapiens, UniProt Q8IXJ6)	enzyme activity, slow-binding inhibitor	–	slow binding mechanism B, together with: myristoylated peptide substrate	–	k2	0.1 ± 0.01 min⁻¹
CC/C=C(\C)C=O	Uncharacterized protein PH0856 (Pyrococcus horikoshii, UniProt O58586)	substrate	–	pH 7, 30 °C, anaerobic, shaking 300 rpm, together with: NADPH	–	conversion	40%
O=[N+]([O-])c1cc(C(F)(F)F)ccc1NCc1ccsc1	Endothelial PAS domain-containing protein 1, PAS-B domain (EPAS1, Homo sapiens, UniProt Q99814, N288Q)	binding, ITC, reverse mode	–	–	–	TΔS	2.58 ± 0.12 kcal/mol
CCN1CCN(c2ccccc2NC(=O)c2cc(S(=O)(=O)N(CC)c3ccccc3)ccc2Cl)C1=O	N-myristoyltransferase (Cryptosporidium parvum, UniProt Q5CV46)	enzyme activity, inhibitor	–	–	reference: HsNMT1 IC50 over target IC50	selectivity ratio	> 40 fold and > 44 fold
O=C1c2ccccc2C(=O)c2c(NCCc3ccc(O)cc3)ccc(NCCc3ccc(O)cc3)c21	Toxoplasma gondii	parasite growth	HFF, bradyzoite, alkaline-induced	–	–	EC90	438 µM
Nc1nc2c(ncn2[C@@H]2O[C@H](COP(=O)(O)O)[C@@H](O)[C@H]2O)c(=O)[nH]1	GUK1 (Homo sapiens, UniProt Q16774, S37A)	enzyme activity, NADH-coupled	–	125 µM	–	reaction rate	0.817 s⁻¹ and -1.43 s⁻¹ and -0.0109 s⁻¹

For quick reference, copied from above:
Structure (SMILES)	target or system	test	test system	conditions	scale	quantity	value
Nc1ncnc2c1ncn2[C@@H]1O[C@H](COP(=O)(O)CP(=O)(O)OP(=O)(O)O)[C@@H](O)[C@H]1O	P2X purinoceptor 1 (P2RX1, Homo sapiens, UniProt P51575, R139P)	calcium influx	–	3.16 µM	reference: ionomycin response	calcium influx	94.7% and 98.7% and 95.9%
c1coc(-c2n[nH]cc2-c2ccnc3ccccc23)c1	Histidine protein kinase NIK1 (NIK1, Candida albicans, UniProt Q5A599)	kinase binding, MIB/MS competition	Candida albicans lysate	10 µM	reference: DMSO, negative = stronger binding	log2 fold change	-0.12
CCN1CCC[C@H]1CNC(=O)c1c(O)c(Cl)cc(Cl)c1OC	Probable G-protein coupled receptor 160 (GPR160, Homo sapiens, UniProt Q9UJ42)	β-arrestin recruitment, TANGO luminescence, item: GPR160	–	concentration not given	reference: basal luminescence	log2 fold change	0.251
Cc1cc(-c2ccnc3[nH]cc(F)c23)cc(F)c1[C@@]1(O)[C@H](C)CN(C2CCS(=O)(=O)CC2)C[C@@H]1C	LATS1 (Homo sapiens, UniProt O95835)	ATP/ADP probe binding, KiNativ	HEK293T lysate	1 µM, Lys1 peptide ALYATKTLR	–	probe labelling inhibition	58.9%
CCCCC(=O)NN(CC)c1cc(C)c(C#N)c(Cl)n1	UCHL1	covalent, intact protein LC-MS	–	12.5 µM	–	labelling	5.73%
O=C(NCCNC(=O)c1n[nH]c(=O)c2ccccc12)c1cccc(CN2C(=O)CNC2=O)c1	TNKS (Homo sapiens, UniProt O95271)	enzyme activity, inhibitor	–	–	–	ligand efficiency	0.42
